Measurements gathered from unrelated publications.
Numbered parts are unrelated; each lists some results of a single study. “And” joins repeats or separate records; there may be more than shown.
Chain of UniProt Q99558 (whole entry, looked up): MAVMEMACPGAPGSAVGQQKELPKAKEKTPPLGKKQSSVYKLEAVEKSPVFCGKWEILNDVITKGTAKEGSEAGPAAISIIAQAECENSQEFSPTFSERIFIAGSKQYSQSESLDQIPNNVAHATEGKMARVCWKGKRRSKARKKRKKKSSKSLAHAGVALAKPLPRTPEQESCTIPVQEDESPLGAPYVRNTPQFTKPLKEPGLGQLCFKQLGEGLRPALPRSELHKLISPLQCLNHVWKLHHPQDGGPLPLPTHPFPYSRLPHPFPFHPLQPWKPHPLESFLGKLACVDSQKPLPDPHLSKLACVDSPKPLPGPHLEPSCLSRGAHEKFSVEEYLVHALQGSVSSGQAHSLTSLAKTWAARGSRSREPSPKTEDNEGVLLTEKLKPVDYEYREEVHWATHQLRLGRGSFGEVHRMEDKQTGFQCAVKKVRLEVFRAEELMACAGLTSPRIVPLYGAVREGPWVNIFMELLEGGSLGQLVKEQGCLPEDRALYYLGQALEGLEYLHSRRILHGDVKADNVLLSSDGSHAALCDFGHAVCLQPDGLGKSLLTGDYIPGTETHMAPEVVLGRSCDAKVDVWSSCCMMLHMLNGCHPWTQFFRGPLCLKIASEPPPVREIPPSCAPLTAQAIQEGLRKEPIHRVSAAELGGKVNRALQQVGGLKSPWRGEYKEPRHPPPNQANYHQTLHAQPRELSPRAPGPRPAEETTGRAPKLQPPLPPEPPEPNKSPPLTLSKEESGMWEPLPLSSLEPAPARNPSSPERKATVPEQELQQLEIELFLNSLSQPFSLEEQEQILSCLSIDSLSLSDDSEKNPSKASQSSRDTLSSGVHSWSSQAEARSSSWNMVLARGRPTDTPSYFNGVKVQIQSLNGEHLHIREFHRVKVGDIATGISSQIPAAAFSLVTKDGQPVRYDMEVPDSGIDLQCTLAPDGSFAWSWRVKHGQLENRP
Chain of UniProt P52333 (whole entry, looked up): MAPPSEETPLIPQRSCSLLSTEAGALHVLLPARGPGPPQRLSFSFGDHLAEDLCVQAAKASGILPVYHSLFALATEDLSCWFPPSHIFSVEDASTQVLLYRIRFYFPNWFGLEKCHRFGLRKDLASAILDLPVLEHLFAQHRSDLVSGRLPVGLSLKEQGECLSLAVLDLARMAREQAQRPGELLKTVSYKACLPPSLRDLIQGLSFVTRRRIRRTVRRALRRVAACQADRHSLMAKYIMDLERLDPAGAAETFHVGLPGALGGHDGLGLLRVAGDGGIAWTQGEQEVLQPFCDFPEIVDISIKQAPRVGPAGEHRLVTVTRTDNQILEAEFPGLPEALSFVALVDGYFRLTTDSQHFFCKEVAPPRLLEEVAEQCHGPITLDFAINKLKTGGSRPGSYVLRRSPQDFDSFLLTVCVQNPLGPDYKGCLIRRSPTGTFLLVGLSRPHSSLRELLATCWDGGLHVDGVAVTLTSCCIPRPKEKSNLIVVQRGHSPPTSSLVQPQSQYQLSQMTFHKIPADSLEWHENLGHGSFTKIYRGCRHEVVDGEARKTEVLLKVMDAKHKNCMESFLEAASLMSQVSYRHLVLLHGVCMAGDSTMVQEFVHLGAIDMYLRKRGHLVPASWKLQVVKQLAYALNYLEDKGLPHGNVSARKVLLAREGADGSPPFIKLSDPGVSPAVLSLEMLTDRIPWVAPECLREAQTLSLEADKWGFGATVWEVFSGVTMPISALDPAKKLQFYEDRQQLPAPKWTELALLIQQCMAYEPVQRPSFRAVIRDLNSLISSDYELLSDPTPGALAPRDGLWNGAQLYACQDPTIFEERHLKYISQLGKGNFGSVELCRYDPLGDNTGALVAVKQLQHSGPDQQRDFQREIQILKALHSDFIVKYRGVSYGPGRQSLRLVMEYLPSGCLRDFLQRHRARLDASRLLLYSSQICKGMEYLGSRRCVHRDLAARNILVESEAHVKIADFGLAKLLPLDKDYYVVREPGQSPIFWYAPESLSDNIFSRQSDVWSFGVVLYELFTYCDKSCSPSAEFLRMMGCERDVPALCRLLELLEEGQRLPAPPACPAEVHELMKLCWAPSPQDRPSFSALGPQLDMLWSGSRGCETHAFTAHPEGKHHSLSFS
Chain of UniProt Q9Y6M4 (whole entry, looked up): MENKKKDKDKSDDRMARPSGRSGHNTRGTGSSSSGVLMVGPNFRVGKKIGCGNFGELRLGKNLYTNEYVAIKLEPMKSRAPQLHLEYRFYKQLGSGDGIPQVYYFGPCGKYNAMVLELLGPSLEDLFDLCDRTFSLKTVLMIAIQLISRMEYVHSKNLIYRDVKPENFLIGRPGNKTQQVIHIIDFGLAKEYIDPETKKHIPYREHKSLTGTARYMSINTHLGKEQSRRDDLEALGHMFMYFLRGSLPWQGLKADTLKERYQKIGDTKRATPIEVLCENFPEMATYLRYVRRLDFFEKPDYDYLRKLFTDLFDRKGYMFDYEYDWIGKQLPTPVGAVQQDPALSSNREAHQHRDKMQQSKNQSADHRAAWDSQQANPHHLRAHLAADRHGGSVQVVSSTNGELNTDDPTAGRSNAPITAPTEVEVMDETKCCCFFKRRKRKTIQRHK
Chain of UniProt P06239 (whole entry, looked up): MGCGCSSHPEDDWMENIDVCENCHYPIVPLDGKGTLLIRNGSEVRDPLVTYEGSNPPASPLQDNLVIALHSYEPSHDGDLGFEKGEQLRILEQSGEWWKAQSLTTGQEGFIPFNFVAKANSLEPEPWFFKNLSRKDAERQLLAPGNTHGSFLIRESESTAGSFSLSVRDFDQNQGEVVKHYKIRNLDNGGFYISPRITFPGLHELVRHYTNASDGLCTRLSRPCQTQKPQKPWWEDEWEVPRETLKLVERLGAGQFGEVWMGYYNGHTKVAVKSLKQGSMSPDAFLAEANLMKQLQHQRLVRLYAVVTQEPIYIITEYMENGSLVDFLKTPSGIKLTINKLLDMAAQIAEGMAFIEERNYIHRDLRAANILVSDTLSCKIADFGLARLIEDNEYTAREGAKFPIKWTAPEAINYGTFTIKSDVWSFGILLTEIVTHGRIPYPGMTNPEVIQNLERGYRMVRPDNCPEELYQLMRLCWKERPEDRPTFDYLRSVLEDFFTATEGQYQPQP
Chain of UniProt Q13237 (whole entry, looked up): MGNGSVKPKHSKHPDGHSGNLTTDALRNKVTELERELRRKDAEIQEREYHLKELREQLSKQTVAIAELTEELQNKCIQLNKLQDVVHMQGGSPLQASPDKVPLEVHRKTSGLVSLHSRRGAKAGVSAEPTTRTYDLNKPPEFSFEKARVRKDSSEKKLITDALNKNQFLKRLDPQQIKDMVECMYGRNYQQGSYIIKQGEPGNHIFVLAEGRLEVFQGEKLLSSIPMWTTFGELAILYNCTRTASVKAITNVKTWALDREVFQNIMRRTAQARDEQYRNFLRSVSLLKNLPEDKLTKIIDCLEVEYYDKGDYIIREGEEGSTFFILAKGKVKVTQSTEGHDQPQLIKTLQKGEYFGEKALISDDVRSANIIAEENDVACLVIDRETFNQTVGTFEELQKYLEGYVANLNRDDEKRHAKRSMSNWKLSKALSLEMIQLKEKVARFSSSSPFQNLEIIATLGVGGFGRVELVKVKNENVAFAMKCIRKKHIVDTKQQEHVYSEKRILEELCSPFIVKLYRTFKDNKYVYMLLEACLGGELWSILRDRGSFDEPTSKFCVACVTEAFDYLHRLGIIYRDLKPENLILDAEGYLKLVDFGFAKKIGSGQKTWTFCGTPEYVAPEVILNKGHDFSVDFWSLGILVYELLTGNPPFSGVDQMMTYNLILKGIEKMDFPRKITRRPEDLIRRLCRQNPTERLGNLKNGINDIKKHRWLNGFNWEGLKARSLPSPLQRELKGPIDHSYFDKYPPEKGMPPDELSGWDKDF
Chain of UniProt Q9HBH9 (whole entry, looked up): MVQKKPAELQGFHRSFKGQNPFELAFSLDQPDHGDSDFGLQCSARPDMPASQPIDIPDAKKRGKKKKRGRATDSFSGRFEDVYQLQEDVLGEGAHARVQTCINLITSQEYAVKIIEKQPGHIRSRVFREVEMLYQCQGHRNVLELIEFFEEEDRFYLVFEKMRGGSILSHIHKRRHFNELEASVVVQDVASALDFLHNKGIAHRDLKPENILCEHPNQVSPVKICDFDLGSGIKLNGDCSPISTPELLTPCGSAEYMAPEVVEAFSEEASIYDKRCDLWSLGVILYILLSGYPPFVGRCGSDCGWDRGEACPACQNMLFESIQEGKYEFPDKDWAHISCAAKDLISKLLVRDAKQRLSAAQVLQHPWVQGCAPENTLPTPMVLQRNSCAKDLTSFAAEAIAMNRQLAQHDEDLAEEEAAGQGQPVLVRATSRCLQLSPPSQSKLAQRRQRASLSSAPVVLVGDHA
Chain of UniProt Q9HC98 (whole entry, looked up): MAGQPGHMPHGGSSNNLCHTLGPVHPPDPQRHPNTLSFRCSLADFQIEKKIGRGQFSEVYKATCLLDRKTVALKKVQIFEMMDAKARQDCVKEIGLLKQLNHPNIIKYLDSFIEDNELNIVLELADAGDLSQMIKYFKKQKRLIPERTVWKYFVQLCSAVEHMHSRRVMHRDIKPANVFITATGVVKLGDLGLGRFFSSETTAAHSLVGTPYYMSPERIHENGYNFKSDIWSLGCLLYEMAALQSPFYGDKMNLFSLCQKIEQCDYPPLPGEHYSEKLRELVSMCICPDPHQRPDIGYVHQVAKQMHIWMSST

Series 1
Target: Calcium/calmodulin-dependent protein kinase type II subunit alpha (CAMK2A, Homo sapiens, UniProt Q9UQM7)
Chain of UniProt Q9UQM7 (whole entry, looked up): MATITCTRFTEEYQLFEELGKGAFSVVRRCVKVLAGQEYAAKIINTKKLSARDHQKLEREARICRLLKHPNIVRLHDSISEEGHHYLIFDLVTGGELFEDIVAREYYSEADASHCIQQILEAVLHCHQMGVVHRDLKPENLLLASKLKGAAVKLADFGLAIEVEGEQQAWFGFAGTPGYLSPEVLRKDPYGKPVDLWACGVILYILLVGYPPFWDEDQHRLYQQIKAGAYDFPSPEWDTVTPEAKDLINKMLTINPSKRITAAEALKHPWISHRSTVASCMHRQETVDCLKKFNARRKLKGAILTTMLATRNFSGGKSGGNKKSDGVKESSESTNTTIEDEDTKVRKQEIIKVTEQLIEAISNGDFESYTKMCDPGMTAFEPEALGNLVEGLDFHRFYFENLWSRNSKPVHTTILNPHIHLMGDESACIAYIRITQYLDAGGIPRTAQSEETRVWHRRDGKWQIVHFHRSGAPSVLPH
Observed: enzyme activity
Mode: inhibitor
Concentration: 10 µM
For `CSCCNc1nc(SCCC(F)(F)F)nc2c1ncn2[C@@H]1O[C@H](COP(=O)(O)OP(=O)(O)C(Cl)(Cl)P(=O)(O)O)[C@@H](O)[C@H]1O`, the inhibition was -6%.
`CN1CCN(c2cc3c(nn2)Oc2ccccc2N3C)CC1` gave an inhibition of -9%.
For `CC(=O)c1ccc(O)c(C)c1`, the inhibition was 2%.
The inhibition of `Nc1nc(O)c2ncn(CCC(CO)CO)c2n1` is reported as -10%.
The inhibition of `COc1cc(COC(=O)CCCCCCC(C)C)ccc1O` is reported as 18%.
The inhibition of `CCN1CCN(c2ccc(Nc3cc(N(C)C(=O)Nc4c(Cl)c(OC)cc(OC)c4Cl)ncn3)cc2)CC1` is reported as 12%.
The inhibition of `CC(C)(COP(=O)(O)OP(=O)(O)OC[C@H]1O[C@@H](n2cnc3c(N)ncnc32)[C@H](O)[C@@H]1OP(=O)(O)O)[C@@H](O)C(=O)NCCC(=O)NCCS` is reported as -1%.
`CCCCC(O)C(=O)O` (centres unmarked) has an inhibition of 31%.
The inhibition of `C[C@H](CCC(=O)NCC(=O)O)[C@H]1CC[C@H]2[C@@H]3[C@H](O)C[C@@H]4C[C@H](O)CC[C@]4(C)[C@H]3CC[C@]12C` is reported as -10%.
For `CN1CCN(CC(=O)N2c3ccccc3C(=O)Nc3cccnc32)CC1`, the inhibition was -11%.
The inhibition of `CC(C)CCC[C@@H](C)[C@H]1CC[C@H]2[C@@H]3CC=C4C[C@@H](OS(=O)(=O)O)CC[C@]4(C)[C@H]3CC[C@]12C` is reported as -28%.
The inhibition of `CN1[C@@H]2CC[C@H]1CC(OC(c1ccccc1)c1ccccc1)C2` (some centres unmarked) is reported as 5%.
The inhibition of `CCCS(=O)(=O)N[C@H]1C[C@@H](N(C)c2ncnc3[nH]ccc23)C1` is reported as -12%.
`CCC(=O)O[C@@H](O[P@](=O)(CCCCc1ccccc1)CC(=O)N1C[C@H](C2CCCCC2)C[C@H]1C(=O)O)C(C)C` has an inhibition of -17%.
`NC(=O)c1cccnc1` has an inhibition of -5%.

Series 2
Compound: CN1CC[C@@H](c2c(O)cc(O)c3c(=O)cc(-c4ccccc4Cl)oc23)[C@@H]1CO
Cell line: HH
Method: trypan blue exclusion
Time: 48 h
Reference: untreated
The viability was 91.1% and 97.7% and 89.5% (0.01 µM).
The viability was 96.6% and 88.2% and 100% (0.05 µM).
It gave 2.79% and 0% and 1.07% for viability (10 µM).
For 1 µM: viability read 13.3% and 12.9% and 9.11%.
It gave 61.8% and 62.3% and 55.6% for viability (0.5 µM).
For 0.001 µM: viability read 107% and 103%.
For 0.1 µM: viability read 94.9% and 91.4% and 92.6%.

Series 3
Compound: CC(C)CC(=O)N1CCc2nc(-c3ccc(Br)cc3)nc(N(C)Cc3ccccc3)c2C1
Method: competition with immobilised ligand
Concentration: 0.1 µM
It gave 86% for remaining binding (HUNK (Homo sapiens, UniProt P57058); cell-free assay).
MAPK15 (Homo sapiens, UniProt Q8TD08); cell-free assay — remaining binding: 100%.
For MAP3K1 (Homo sapiens, UniProt Q13233); cell-free assay: remaining binding read 100%.
The remaining binding was 100% (WEE2 (Homo sapiens, UniProt P0C1S8); cell-free assay).
For STK33 (Homo sapiens, UniProt Q9BYT3); cell-free assay: remaining binding read 74%.
For CLK1 (Homo sapiens, UniProt P49759); cell-free assay: remaining binding read 100%.
For WNK3 (Homo sapiens, UniProt Q9BYP7); cell-free assay: remaining binding read 100%.
For Ribosomal protein S6 kinase alpha-3, N-terminal kinase domain (RPS6KA3, Homo sapiens, UniProt P51812); cell-free assay: remaining binding read 94%.
The remaining binding was 100% (PAK4 (Homo sapiens, UniProt O96013); cell-free assay).
CDK11A (Homo sapiens, UniProt Q9UQ88); binding — remaining binding: 100%.
MAP4K3 (Homo sapiens, UniProt Q8IVH8); cell-free assay — remaining binding: 95%.
TRPM6 (Homo sapiens, UniProt Q9BX84); cell-free assay — remaining binding: 100%.
For CDC42BPA (Homo sapiens, UniProt Q5VT25); cell-free assay: remaining binding read 100%.
It gave 100% for remaining binding (Mast/stem cell growth factor receptor Kit, autoinhibited (KIT, Homo sapiens, UniProt P10721); cell-free assay).
The remaining binding was 100% (PRKG2 (Homo sapiens, UniProt Q13237); cell-free assay).
The remaining binding was 89% (MTOR (Homo sapiens, UniProt P42345); cell-free assay).
It gave 86% for remaining binding (CSNK1G2 (Homo sapiens, UniProt P78368); cell-free assay).
It gave 100% for remaining binding (MINK1 (Homo sapiens, UniProt Q8N4C8); cell-free assay).
It gave 73% for remaining binding (MKNK2 (Homo sapiens, UniProt Q9HBH9); cell-free assay).
PIM3 (Homo sapiens, UniProt Q86V86); cell-free assay — remaining binding: 100%.
The remaining binding was 100% (CHUK (Homo sapiens, UniProt O15111); cell-free assay).
FLT3 (Homo sapiens, UniProt P36888, R834Q); cell-free assay — remaining binding: 65%.
The remaining binding was 100% (TLK1 (Homo sapiens, UniProt Q9UKI8); cell-free assay).
The remaining binding was 98% (NEK11 (Homo sapiens, UniProt Q8NG66); cell-free assay).
It gave 100% for remaining binding (MAP3K14 (Homo sapiens, UniProt Q99558); cell-free assay).

Series 4
Compound: CCC(=O)Nc1ccc2ncnc(Nc3cccc(Br)c3)c2c1
Observed: enzyme activity
Mode: inhibitor
Concentration: 0.5 µM
Reference: control
The remaining activity was 98.3% (JAK3 (Homo sapiens, UniProt P52333)).
GRK7 (Homo sapiens, UniProt Q8WTQ7) — remaining activity: 105%.
The remaining activity was 97.5% (ULK3 (Homo sapiens, UniProt Q6PHR2)).
RPS6KA2 (Homo sapiens, UniProt Q15349) — remaining activity: 87.2%.
It gave 91.6% for remaining activity (CSNK1G3 (Homo sapiens, UniProt Q9Y6M4)).
For WEE1 (Homo sapiens, UniProt P30291): remaining activity read 80.2%.
The remaining activity was 91.2% (TEK (Homo sapiens, UniProt Q02763)).
It gave 76.9% for remaining activity (NEK1 (Homo sapiens, UniProt Q96PY6)).
The remaining activity was 93.4% (ARAF (Homo sapiens, UniProt P10398)).
For GSK3B (Homo sapiens, UniProt P49841): remaining activity read 91.2%.
It gave 93.1% for remaining activity (LCK (Homo sapiens, UniProt P06239)).
It gave 116% for remaining activity (MAP3K14 (Homo sapiens, UniProt Q99558)).
ACVR1B (Homo sapiens, UniProt P36896) — remaining activity: 96.5%.
The remaining activity was 105% (NEK6 (Homo sapiens, UniProt Q9HC98)).
It gave 93.2% for remaining activity (FGFR3 (Homo sapiens, UniProt P22607)).

For quick reference, copied from above (series 3):
MAPK15 (Homo sapiens, UniProt Q8TD08); cell-free assay — remaining binding: 100%.
For MAP3K1 (Homo sapiens, UniProt Q13233); cell-free assay: remaining binding read 100%.
The remaining binding was 100% (WEE2 (Homo sapiens, UniProt P0C1S8); cell-free assay).
For STK33 (Homo sapiens, UniProt Q9BYT3); cell-free assay: remaining binding read 74%.
For CLK1 (Homo sapiens, UniProt P49759); cell-free assay: remaining binding read 100%.
For WNK3 (Homo sapiens, UniProt Q9BYP7); cell-free assay: remaining binding read 100%.
For Ribosomal protein S6 kinase alpha-3, N-terminal kinase domain (RPS6KA3, Homo sapiens, UniProt P51812); cell-free assay: remaining binding read 94%.
The remaining binding was 100% (PAK4 (Homo sapiens, UniProt O96013); cell-free assay).
CDK11A (Homo sapiens, UniProt Q9UQ88); binding — remaining binding: 100%.
MAP4K3 (Homo sapiens, UniProt Q8IVH8); cell-free assay — remaining binding: 95%.
